# Results collected from several papers.
# Every numbered part comes from another study and shows a few of its results, in no order.
# Sequence of UniProt Q02779 (whole entry, looked up): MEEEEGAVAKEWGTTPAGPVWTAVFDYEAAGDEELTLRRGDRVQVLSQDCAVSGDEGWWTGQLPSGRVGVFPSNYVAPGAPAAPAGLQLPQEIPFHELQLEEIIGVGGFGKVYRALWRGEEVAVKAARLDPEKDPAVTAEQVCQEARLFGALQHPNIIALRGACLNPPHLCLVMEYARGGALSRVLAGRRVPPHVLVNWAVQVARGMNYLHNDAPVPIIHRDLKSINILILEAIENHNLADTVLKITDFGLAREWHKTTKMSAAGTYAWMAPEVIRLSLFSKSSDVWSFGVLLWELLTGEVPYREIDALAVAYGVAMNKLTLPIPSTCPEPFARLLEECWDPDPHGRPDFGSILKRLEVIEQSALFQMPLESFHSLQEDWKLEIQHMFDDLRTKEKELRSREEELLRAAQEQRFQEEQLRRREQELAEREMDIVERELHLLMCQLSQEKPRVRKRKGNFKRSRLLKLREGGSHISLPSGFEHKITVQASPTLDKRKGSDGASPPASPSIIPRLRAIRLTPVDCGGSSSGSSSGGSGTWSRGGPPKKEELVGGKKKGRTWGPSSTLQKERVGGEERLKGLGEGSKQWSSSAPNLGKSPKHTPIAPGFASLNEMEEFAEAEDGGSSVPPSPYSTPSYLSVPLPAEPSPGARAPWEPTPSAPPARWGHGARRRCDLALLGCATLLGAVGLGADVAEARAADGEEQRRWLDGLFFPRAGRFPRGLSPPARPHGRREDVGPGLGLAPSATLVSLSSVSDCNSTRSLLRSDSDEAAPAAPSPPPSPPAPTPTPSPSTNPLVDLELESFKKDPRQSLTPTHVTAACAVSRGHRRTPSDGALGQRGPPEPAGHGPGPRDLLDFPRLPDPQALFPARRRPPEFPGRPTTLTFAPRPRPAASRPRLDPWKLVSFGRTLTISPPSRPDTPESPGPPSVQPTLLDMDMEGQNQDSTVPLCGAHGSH
# Sequence of UniProt P53671 (whole entry, looked up): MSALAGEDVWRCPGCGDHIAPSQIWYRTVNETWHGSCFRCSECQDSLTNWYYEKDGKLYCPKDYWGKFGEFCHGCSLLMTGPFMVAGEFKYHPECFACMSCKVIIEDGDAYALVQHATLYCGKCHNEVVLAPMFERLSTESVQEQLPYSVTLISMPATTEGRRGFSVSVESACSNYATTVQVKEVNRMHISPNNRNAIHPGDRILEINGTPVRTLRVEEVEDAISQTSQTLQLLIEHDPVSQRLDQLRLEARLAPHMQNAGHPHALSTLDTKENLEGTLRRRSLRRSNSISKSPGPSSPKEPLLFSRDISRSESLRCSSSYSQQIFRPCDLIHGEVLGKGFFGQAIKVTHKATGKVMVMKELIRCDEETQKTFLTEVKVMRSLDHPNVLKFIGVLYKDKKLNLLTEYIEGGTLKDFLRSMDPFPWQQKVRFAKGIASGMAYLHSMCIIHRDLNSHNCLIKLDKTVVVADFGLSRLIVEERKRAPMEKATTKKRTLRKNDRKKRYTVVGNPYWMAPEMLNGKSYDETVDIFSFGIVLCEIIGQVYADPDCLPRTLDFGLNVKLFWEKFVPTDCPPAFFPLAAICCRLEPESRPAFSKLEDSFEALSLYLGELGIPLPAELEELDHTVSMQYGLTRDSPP
# Sequence of UniProt P00519 (whole entry, looked up): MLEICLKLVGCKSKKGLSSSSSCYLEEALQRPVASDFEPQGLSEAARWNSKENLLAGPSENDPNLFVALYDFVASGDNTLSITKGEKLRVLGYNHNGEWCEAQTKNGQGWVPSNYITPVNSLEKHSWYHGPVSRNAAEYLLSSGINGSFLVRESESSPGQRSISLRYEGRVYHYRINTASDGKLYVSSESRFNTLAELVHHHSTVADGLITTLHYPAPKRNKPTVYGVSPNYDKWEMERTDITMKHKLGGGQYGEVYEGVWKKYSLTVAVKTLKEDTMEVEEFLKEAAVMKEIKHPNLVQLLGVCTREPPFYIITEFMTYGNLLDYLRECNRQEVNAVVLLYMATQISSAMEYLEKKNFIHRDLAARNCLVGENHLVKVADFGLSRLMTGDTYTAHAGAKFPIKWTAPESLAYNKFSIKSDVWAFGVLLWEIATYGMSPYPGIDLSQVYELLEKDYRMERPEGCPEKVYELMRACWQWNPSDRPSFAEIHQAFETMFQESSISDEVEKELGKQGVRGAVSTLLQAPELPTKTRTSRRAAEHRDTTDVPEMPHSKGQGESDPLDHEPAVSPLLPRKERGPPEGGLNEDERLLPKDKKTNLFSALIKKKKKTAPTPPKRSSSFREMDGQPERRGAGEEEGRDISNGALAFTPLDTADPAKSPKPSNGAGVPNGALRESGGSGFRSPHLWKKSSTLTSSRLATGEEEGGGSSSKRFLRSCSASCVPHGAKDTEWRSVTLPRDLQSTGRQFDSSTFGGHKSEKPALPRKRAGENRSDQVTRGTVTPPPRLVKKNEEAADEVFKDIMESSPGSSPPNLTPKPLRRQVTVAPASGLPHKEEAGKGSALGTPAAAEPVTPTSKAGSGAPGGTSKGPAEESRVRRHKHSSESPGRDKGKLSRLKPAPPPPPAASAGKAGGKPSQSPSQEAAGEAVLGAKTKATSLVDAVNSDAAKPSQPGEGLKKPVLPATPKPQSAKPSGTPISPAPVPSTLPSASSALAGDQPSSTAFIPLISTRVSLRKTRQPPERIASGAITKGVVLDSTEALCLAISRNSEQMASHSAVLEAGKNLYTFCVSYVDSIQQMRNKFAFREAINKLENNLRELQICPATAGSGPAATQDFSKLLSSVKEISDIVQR
# Sequence of UniProt P30530 (whole entry, looked up): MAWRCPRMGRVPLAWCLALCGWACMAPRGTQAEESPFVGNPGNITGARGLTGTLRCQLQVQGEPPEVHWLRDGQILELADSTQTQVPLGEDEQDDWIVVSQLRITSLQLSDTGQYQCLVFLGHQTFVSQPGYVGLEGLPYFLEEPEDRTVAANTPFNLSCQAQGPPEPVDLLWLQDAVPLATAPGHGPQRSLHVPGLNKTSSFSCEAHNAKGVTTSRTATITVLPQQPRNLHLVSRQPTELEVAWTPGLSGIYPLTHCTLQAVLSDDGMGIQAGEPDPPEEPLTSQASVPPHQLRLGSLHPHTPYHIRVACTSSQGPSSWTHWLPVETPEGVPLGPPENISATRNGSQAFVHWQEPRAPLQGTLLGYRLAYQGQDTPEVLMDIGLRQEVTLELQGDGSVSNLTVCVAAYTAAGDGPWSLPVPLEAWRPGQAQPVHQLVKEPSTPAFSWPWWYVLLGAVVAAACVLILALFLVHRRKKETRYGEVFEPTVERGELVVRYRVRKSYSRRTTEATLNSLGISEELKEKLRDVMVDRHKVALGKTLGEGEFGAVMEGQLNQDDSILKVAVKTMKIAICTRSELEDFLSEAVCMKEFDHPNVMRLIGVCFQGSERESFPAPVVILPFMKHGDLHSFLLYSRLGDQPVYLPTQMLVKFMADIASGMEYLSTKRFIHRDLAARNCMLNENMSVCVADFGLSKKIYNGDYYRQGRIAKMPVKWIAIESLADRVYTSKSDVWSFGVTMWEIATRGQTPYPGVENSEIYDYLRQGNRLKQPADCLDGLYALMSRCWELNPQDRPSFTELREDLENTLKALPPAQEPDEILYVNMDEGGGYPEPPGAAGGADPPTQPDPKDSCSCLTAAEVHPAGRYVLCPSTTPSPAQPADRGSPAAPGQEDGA

# Set 1 — read-out: thermal unfolding; technique: differential scanning fluorimetry; concentration: 5.5 µM; reading: higher = more unfolded
# Compound: C[C@@H]1CN(c2ccc(-c3cc(C(=O)NCCOCCOCCOCCOCCNC(=O)/C=C/c4[nH]cc(C(=O)N[C@@H](CC(N)=O)c5ccc(F)c(Cl)c5)c4-c4ccc(Cl)cc4F)ccc3F)cc2NC(=O)c2c[nH]c(=O)cc2C(F)(F)F)C[C@H](C)N1C
# DCAF1: DDB1- and CUL4-associated factor 1 (DCAF1, Homo sapiens, UniProt Q9Y4B6)
# Sequence of UniProt Q9Y4B6 (whole entry, looked up): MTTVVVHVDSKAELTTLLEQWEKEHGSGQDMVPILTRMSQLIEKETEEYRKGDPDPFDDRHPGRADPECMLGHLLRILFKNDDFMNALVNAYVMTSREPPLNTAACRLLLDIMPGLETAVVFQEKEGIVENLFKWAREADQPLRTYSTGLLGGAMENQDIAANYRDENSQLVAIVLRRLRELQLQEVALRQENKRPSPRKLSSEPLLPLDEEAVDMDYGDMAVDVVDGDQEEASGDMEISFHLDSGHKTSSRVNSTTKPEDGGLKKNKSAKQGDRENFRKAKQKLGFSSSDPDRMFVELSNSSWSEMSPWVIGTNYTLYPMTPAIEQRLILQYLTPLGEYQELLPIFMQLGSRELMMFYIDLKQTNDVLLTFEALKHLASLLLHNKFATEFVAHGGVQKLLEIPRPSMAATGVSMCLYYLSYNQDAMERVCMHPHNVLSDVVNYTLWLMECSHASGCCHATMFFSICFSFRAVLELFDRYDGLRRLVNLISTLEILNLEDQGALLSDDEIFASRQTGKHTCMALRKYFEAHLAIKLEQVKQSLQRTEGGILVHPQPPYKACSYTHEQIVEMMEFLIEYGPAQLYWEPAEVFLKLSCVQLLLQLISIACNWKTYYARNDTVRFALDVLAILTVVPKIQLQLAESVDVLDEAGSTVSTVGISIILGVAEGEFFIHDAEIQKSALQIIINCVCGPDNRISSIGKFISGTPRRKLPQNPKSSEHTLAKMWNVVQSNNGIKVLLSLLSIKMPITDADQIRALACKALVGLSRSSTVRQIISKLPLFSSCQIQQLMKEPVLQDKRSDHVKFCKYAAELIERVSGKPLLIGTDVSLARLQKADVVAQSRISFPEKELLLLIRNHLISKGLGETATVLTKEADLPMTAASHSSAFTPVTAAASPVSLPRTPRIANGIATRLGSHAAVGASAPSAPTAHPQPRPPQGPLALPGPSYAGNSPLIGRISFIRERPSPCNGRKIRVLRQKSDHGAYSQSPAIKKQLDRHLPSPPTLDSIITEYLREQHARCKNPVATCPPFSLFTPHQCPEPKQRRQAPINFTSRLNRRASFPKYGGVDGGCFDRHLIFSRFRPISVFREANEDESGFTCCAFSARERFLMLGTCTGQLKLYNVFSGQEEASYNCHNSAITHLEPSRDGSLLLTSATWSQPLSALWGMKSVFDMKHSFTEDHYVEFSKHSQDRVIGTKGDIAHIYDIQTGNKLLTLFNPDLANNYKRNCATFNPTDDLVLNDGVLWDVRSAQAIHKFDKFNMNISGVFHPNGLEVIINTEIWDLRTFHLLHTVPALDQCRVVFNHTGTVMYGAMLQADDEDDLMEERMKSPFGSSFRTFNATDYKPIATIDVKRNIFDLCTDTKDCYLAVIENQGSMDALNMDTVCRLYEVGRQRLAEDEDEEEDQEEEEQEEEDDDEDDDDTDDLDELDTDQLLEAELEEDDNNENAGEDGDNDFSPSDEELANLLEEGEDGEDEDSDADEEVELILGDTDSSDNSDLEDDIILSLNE
# WDR5: WD repeat-containing protein 5 (WDR5, Homo sapiens, UniProt P61964)
target,temperature,SYPRO Orange fluorescence [a.u.]
DCAF1,26.4 °C,8910
DCAF1,40.2 °C,11600
DCAF1,47.6 °C,14200
WDR5,30.8 °C,12800
DCAF1,25.2 °C,9010
WDR5,61.41 °C,15200
WDR5,35 °C,13200
DCAF1,37.6 °C,10800

# Set 2 — cell line: U-87 MG; concentration: concentration not given; reference: DMSO
# SMILES: CCN1/C(=C/C=C2\CCCC(/C=C/C3=[N+](CC)c4ccccc4C3(C)C)=C2NCCCCCCCCN2CCC(Nc3nc4ccccc4n3Cc3ccc(F)cc3)CC2)C(C)(C)c2ccccc21
measured,log2 fold change
ETV3 mRNA,0.979
PKDCC mRNA,-1.92
SLC38A1 mRNA,1.63
COL17A1 mRNA,-2.16
BLVRA mRNA,-0.915
ARID5B mRNA,-1.12
RARB mRNA,-2.03
FAM78B mRNA,-1.57
ACTB mRNA,-1.63
C12orf29 mRNA,0.926
FIBCD1 mRNA,-1.71

# Set 3 — concentration: 1 µM
# SMILES: CC[C@@]1(c2cccc(C(F)(F)F)c2)C2=C(Nc3n[nH]cc31)[C@H](F)C(C)(C)CC2=O (single isomer, unassigned)
target,read-out,technique,reference,remaining binding [%]
"SIK2 (Homo sapiens, UniProt Q9H0K1)",binding,competition with immobilised ligand,,83
"MYLK2 (Homo sapiens, UniProt Q9H1R3)",kinase binding,KINOMEscan,DMSO control,100
"MAPK15 (Homo sapiens, UniProt Q8TD08)",binding,competition with immobilised ligand,,96
"SNRK (Homo sapiens, UniProt Q9NRH2)",binding,competition with immobilised ligand,,67
"MAP2K2 (Homo sapiens, UniProt P36507)",kinase binding,KINOMEscan,DMSO control,66
"DCLK3 (Homo sapiens, UniProt Q9C098)",binding,competition with immobilised ligand,,100
"STK32B (Homo sapiens, UniProt Q9NY57)",binding,competition with immobilised ligand,,88
"AKT2 (Homo sapiens, UniProt P31751)",binding,competition with immobilised ligand,,100
"GRK7 (Homo sapiens, UniProt Q8WTQ7)",kinase binding,KINOMEscan,DMSO control,95
"BRAF (Homo sapiens, UniProt P15056)",kinase binding,KINOMEscan,DMSO control,95
"Tyrosine-protein kinase ABL1, phosphorylated (ABL1, Homo sapiens, UniProt P00519)",kinase binding,KINOMEscan,DMSO control,70
"CDK14 (Homo sapiens, UniProt O94921)",binding,competition with immobilised ligand,,100
"NEK10 (Homo sapiens, UniProt Q6ZWH5)",binding,competition with immobilised ligand,,100

# Set 4 — technique: NanoBRET; concentration: 1 µM
# Compound: COc1cc(-c2nc3ccc(C(=O)NCCCN(C)C)cc3n2C2CCC2)cc(OC)c1OC
target,target occupancy [%]
"MAP3K12 (Homo sapiens, UniProt Q12852)",1.92
"TXK (Homo sapiens, UniProt P42681)",-0.49
"IRAK3 (Homo sapiens, UniProt Q9Y616)",1.23
"SIK3 (Homo sapiens, UniProt Q9Y2K2)",-1.42
"Cyclin-dependent kinase 17, with cyclin Y (CDK17, Homo sapiens, UniProt Q00537)",-3.83
"MAP3K10 (Homo sapiens, UniProt Q02779)",-6.53
"RPS6KA2 (Homo sapiens, UniProt Q15349)",3.25
"AXL (Homo sapiens, UniProt P30530)",-0.89
"MAP3K9 (Homo sapiens, UniProt P80192)",5.45
"BRSK1 (Homo sapiens, UniProt Q8TDC3)",-1.12
"DYRK1A (Homo sapiens, UniProt Q13627)",4.37
"CHEK2 (Homo sapiens, UniProt O96017)",-2.95
"EPHA4 (Homo sapiens, UniProt P54764)",2.09
"CSNK1G2 (Homo sapiens, UniProt P78368)",3.92
"LIM domain kinase 2 (LIMK2, Homo sapiens, UniProt P53671)",-0.38
"BMP2K (Homo sapiens, UniProt Q9NSY1)",1.39
"MAP3K2 (Homo sapiens, UniProt Q9Y2U5)",-2.04
"STK16 (Homo sapiens, UniProt O75716)",0.66
"MAPK4 (Homo sapiens, UniProt P31152)",-3.47
"STK38 (Homo sapiens, UniProt Q15208)",8.38

# Some of these lines once more (set 2):
measured,log2 fold change
PKDCC mRNA,-1.92
SLC38A1 mRNA,1.63
COL17A1 mRNA,-2.16
BLVRA mRNA,-0.915
ARID5B mRNA,-1.12
